Published values from different studies.
Each line is one published result; not all experiments were run side by side. Numbers after ± are the reported error. Converted amounts (≈) assume the structure as drawn.

Structure (SMILES)	target	test	system	conditions	how to read	endpoint	result
[64Cu+2].c1ccc(CNCc2ccc(CN3CCCN4CCNCCCN(CC4)CC3)cc2)nc1	CXCR4 (human)		NOD/SCID mice, U87 xenografts, kidneys	dose not given, 90 min post-injection, together with: 25 mg/kg AMD3465	relative to: non-blocked	uptake decrease on blocking	23%
CCC(=O)N(C)c1ccc(Cl)c(Cl)c1	CAR3 constitutive androstane receptor, human	reporter gene, agonist		3.2 µM	relative to: vehicle	fold activation	0.66 fold
COc1ccc(-c2nc(CC(=O)NC(c3nc4ccccc4[nH]3)C(C)C)cs2)cc1OC (stereo not drawn)	human CD27	NF-kB reporter gene, agonist	Jurkat CD27 reporter cells			EC50	840 nM
CC[C@H](C)[C@@H]1NC(=O)[C@H](CCCNC(=N)N)NC(=O)[C@H](C)NC(=O)CNC(=O)[C@H](CCCCN)NC(=O)[C@H](CCCNC(=N)N)NC(=O)[C@H](C(C)C)NC(=O)[C@H](C)NC(=O)[C@@H]2CSSC[C@@H]3NC(=O)[C@H](CO)NC(=O)[C@H]([C@@H](C)O)NC(=O)CNC(=O)[C@H](CCCNC(=N)N)NC(=O)[C@@H]4CCCN4C(=O)[C@H](CSSC[C@@H](C(=O)N[C@@H](CC(C)C)C(=O)O)NC(=O)[C@H](CCCCN)NC(=O)[C@H](CC(C)C)NC(=O)[C@H](CC(C)C)NC(=O)[C@H](Cc4ccccc4)NC(=O)[C@H](CO)NC(=O)[C@H](CC(N)=O)NC3=O)NC(=O)[C@H](CC(=O)O)NC(=O)[C@H](CSSC[C@H](NC(=O)[C@H](CCSC)NC(=O)[C@@H]3CCCN3C(=O)[C@@H](NC(=O)[C@H](CCC(N)=O)NC(=O)CNC(=O)[C@H](Cc3ccc(O)c(I)c3)NC(=O)[C@@H](N)CCCCN)C(C)C)C(=O)N[C@@H](CC(=O)O)C(=O)N[C@@H](C)C(=O)NCC(=O)N[C@@H](CCC(=O)O)C(=O)N[C@@H](CCC(N)=O)C(=O)N2)NC(=O)[C@H](CC(C)C)NC(=O)[C@H](CCCCN)NC(=O)CNC1=O	CART binding site, rat		undifferentiated PC-12	pH 7.4		Kd	0.53 ± 0.06 nM
COCc1ccc(C=O)n1CCCC(=O)O	quinone reductase	inducer	Hepa-1c1c7	48 h		concentration doubling activity	2.4 µM
O=C([O][Ti+2][O]C(=O)c1ccc(P(c2ccccc2)c2ccccc2)cc1)c1ccc(P(c2ccccc2)c2ccccc2)cc1.[Cl][Au].[Cl][Au].c1cc[cH-]c1.c1cc[cH-]c1	thioredoxin reductase human	enzyme activity, inhibitor	CAKI-1	5 µM, 5 h		inhibition	31.6%
Cc1ncsc1-c1ccc(CNC(=O)[C@@H]2C[C@@H](O)CN2C(=O)[C@@H](NC(=O)CN2CCN(C3CN(CCNC(=O)C[C@@H]4N=C(c5ccc(Cl)cc5)c5c(sc(C)c5C)-n5c(C)nnc54)C3)CC2)C(C)(C)C)cc1	BRD3 (Spodoptera frugiperda)	degrader, targeted LC-MS	Sf9	1 µM, 24 h		degradation	> 85%
Cc1ccc(NC(=O)c2c(C)oc3ccc(O)c(CN4CCCCCC4)c23)cc1	miR-21 RNA	binding, small molecule microarray			direction not given	composite Z-score	-0.18
Cc1c(-c2cccc(C3=NCCN3)c2)oc(-c2cccc(C3=NCCN3)c2)c1C	HSP90B promoter G-quadruplex DNA	G-quadruplex stabilisation, FRET melting		1 µM		ΔTm	23.7 °C
CC1=[N+]2N=C(c3ccccc3)[O][Pd-2]2([Cl])[O+]=C2Oc3ccccc3C=C21 (stereo not drawn)	yeast tRNA	UV-visible absorption titration		concentration not given, pH 7.2		hypochromism	8.67%
NC[C@@H]1O[C@H](O[C@H]2[C@@H](O)[C@H](O[C@@H]3[C@@H](O)[C@H](N)C[C@H](N)[C@H]3O[C@H]3O[C@H](CN)[C@@H](O)[C@H](O)[C@H]3N)O[C@@H]2CO)[C@H](N)[C@@H](O)[C@@H]1O	poly(dA)•2poly(dT) triplex			concentration not given, pH 5.5, KCl 140 mM		Tm	34.4 °C
N=C(N)NCCCC(N)C(=O)NC[C@@H]1O[C@H](O[C@H]2[C@@H](O)[C@H](O[C@@H]3[C@@H](O)[C@H](NC(=O)C(N)CCCNC(=N)N)C[C@H](N)[C@H]3O[C@H]3O[C@H](CNC(=O)C(N)CCCNC(=N)N)[C@@H](O)[C@H](O)[C@H]3NC(=O)C(N)CCCNC(=N)N)O[C@@H]2CO)[C@H](NC(=O)C(N)CCCNC(=N)N)[C@@H](O)[C@@H]1O (stereo partly drawn)	Escherichia coli RNase P holoenzyme	pre-tRNA processing, inhibitor		1 µM, 10 mM Mg2+ high-salt buffer		inhibition	inhibited
Cc1ccc2c(c1)nc(/C=C/c1cccc3cccnc13)n2-c1cccc(OCCCN2CCN(C)CC2)c1	PDE10A F729A mutant	enzyme activity, inhibitor			relative to: mutant over wild type	potency loss	58 fold
CCCCO[C@H]1[C@H](O)[C@@H](N)[C@@H](O[C@H]2[C@H](O[C@@H]3O[C@H](CO)[C@@H](O[C@H]4O[C@@H](CN)[C@@H](O)[C@H](O)[C@H]4N)[C@H]3O)[C@@H](O)[C@H](N)C[C@@H]2N)O[C@@H]1CO	rabbit reticulocyte ribosome	luciferase translation, cell-free translation	rabbit reticulocyte lysate			IC50	49.8 ± 5.47 µg/mL (≈ 74.2 µM)
C1=[N+]2CCC[N+]3=Cc4ccc5[n]4[Au-]23[n]2c1ccc2-c1nc2ccccc2nc1-5.F[P-](F)(F)(F)(F)F	human ACTN3 291-bp dsDNA	DNA melting temperature, high resolution melt				EC50	9000 nM
CCCCCCCCCCCCCCC(Br)C(=O)O[C@@H](C(=O)O[C@H]1C[C@@]2(O)[C@@H](OC(=O)c3ccccc3)[C@@H]3[C@]4(OC(C)=O)CO[C@@H]4C[C@H](O)[C@@]3(C)C(=O)[C@H](OC(C)=O)C(=C1C)C2(C)C)[C@@H](NC(=O)c1ccccc1)c1ccccc1 (stereo partly drawn)	tubulin			34 µM, 37 °C, together with: tubulin 3 mg/mL		Vmax of tubulin polymerization	30.5 ± 2.1 mOD/min
CC(C)C[C@H](NC(=O)[C@H](CO)NC(=O)[C@H](CCCNC(=N)N)NC(=O)[C@H](CC(=O)O)NC(=O)[C@H](CCC(=O)O)NC(=O)[C@H](C)NC(=O)[C@@H]1CCCN1C(=O)[C@H](C)NC(=O)[C@H](CCC(=O)O)NC(=O)[C@@H]1CCCN1C(=O)[C@@H]1CCCN1)C(N)=O	dopamine system		rhesus monkey, contralateral nucleus accumbens	intranasal, dose not given, repeated dose escalation	relative to: vehicle	DOPAC level reduction	45%
CO[C@@H]1[C@H](O)[C@@H](COP(=O)(O)OP(=O)([S-])OP(=O)(S)OC[C@H]2O[C@@H](n3cnc4c(=O)[nH]c(N)nc43)[C@H](O)[C@@H]2O)O[C@H]1n1c[n+](C)c2c(O)nc(N)nc21 (mixture of isomers)	Schizosaccharomyces pombe Dcp1/Dcp2 complex	substrate	capped short RNA	30 min, 30 °C		decapping	36.7 ± 3.9%
NC(CSSCC(N)C(=O)N1CCn2cc(-c3ccccc3)nc2C1CC1CCCCC1)C(=O)N1CCn2cc(-c3ccccc3)nc2C1CC1CCCCC1 (stereo not drawn)	Gαq/11	item: IP1	CHO M1 receptor expressing	10 µM		inhibition	26.9 ± 3.3%
CN1CCCNC(=O)c2cccc(c2)C(=O)NCCCN(C)CCCNc2cccc3c2C(=O)c2cccc(c2C3=O)NCCC1	duplex DNA	TRAP assay PCR			no inhibition up to value	PCR inhibition threshold	> 50 µM
COc1cc(C(=O)c2[nH]c(N)nc2-c2cccs2)cc(OC)c1OC	FtsZ (Streptococcus pneumoniae)					polymerization	no effect

Some of these lines once more:
Structure (SMILES)	target	test	system	conditions	how to read	endpoint	result
CCCCCCCCCCCCCCC(Br)C(=O)O[C@@H](C(=O)O[C@H]1C[C@@]2(O)[C@@H](OC(=O)c3ccccc3)[C@@H]3[C@]4(OC(C)=O)CO[C@@H]4C[C@H](O)[C@@]3(C)C(=O)[C@H](OC(C)=O)C(=C1C)C2(C)C)[C@@H](NC(=O)c1ccccc1)c1ccccc1 (stereo partly drawn)	tubulin			34 µM, 37 °C, together with: tubulin 3 mg/mL		Vmax of tubulin polymerization	30.5 ± 2.1 mOD/min
CC(C)C[C@H](NC(=O)[C@H](CO)NC(=O)[C@H](CCCNC(=N)N)NC(=O)[C@H](CC(=O)O)NC(=O)[C@H](CCC(=O)O)NC(=O)[C@H](C)NC(=O)[C@@H]1CCCN1C(=O)[C@H](C)NC(=O)[C@H](CCC(=O)O)NC(=O)[C@@H]1CCCN1C(=O)[C@@H]1CCCN1)C(N)=O	dopamine system		rhesus monkey, contralateral nucleus accumbens	intranasal, dose not given, repeated dose escalation	relative to: vehicle	DOPAC level reduction	45%
CO[C@@H]1[C@H](O)[C@@H](COP(=O)(O)OP(=O)([S-])OP(=O)(S)OC[C@H]2O[C@@H](n3cnc4c(=O)[nH]c(N)nc43)[C@H](O)[C@@H]2O)O[C@H]1n1c[n+](C)c2c(O)nc(N)nc21 (mixture of isomers)	Schizosaccharomyces pombe Dcp1/Dcp2 complex	substrate	capped short RNA	30 min, 30 °C		decapping	36.7 ± 3.9%
